Measurements of several laboratories.
Every numbered part comes from another study and shows a few of its results, in no order. Substitutions count along the parent as printed.

Set 1
Target: RING finger protein unkempt homolog, zinc fingers 1-6, SBP tag (UNK, Homo sapiens, UniProt Q9C0B0, residues 30-357)
UniProt Q9C0B0, sequence (30-357, looked up): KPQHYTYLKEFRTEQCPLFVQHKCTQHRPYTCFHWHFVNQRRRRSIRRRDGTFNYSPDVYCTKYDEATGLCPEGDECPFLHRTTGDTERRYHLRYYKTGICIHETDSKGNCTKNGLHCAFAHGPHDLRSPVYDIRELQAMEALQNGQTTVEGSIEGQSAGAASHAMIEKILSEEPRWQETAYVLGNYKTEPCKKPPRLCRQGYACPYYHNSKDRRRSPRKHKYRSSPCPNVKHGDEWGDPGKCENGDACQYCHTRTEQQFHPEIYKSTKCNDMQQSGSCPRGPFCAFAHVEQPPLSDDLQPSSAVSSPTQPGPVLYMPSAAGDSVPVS
Method: RNA Bind-n-Seq
Form: RNA
Medium: in vitro
Concentration: 100 nM
Setting: RNA with constant flanks, ends assumed
Relative to: input RNA pool
Reading: higher = stronger binding
Oligonucleotide	bound/input enrichment
GGGAGUUCUACAGUCCGACGAUCUCUAUACAAUUUUAAAAAUACUUCCUCACCGGAUGCUUUGGCCCUUCAUCUAUUUAAUCACCGCUACAUACCUAUUUUUUAUAAGCCGCAGUACACAUUCAAAGGGGUAUUCCCCGCUCACAACAGAGGAUUGAGCAUCA	2.86 ratio
GGGAGUUCUACAGUCCGACGAUCGUCAUCUGACUGGAUGAAGACUGUUCCAAGUUACAACCAAACAAACCGCUCCAUGGACUUCCGAAAUUAUAUGAUGAGAGAUGAGACUCUGGAACCACUGCCCAAAAACUGGGAAAUGGCCAACAGAGGAUUGAGCAUCA	0.491 ratio
GGGAGUUCUACAGUCCGACGAUCGCAAUGAAAAAGCAGCCCUUCUCCCAGCCCCCUUUUCACCCGGAGACACAAACAUUACAACCGAAGAGCAAUUAAACUCAAUAAAUUUAUCUUUUCAGGAUGAUCCAGAUUCCAGUACCACAACAGAGGAUUGAGCAUCA	0.544 ratio

Set 2
Target: Histone acetyltransferase KAT6A, winged helix 2, GST fusion (KAT6A, Homo sapiens, UniProt Q92794, residues 85-181)
Method: protein binding microarray
Form: double-stranded DNA, one strand shown
Medium: in vitro
Concentration: not given
Setting: 8-mer, flanks averaged, mean of 2 arrays, mostly near background
Relative to: not given
Reading: higher = stronger binding
Residues (chain): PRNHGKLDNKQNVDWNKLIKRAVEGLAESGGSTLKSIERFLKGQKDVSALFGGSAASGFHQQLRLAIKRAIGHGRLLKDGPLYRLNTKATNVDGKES
Oligonucleotide	E-score
AGCTCGAG	0.0224
AGAGGTAG	-0.00777
AGACCATA	-0.0313
CACGGGGG	0.2
AAAGGACT	-0.105
CGGAGCTC	-0.00732
ATGTCTCC	-0.0269
ACTCCTCG	-0.0522
CTGCGGAA	0.0226
AGGGACGA	0.0839
CCTGGAAA	0.0642
AATCCGAT	0.0572
AGCTGTAT	-0.206
AGAAGGCA	-0.0934
ACTAACAA	-0.118
AAGATGGC	0.0763
ACACGGGT	-0.156
GGCAAACA	-0.00824
TGTCCTAA	-0.128
CTGTCGCA	0.119
AAATTCAA	0.0262
CTAACTTA	-0.00335

Set 3
Target: Sal-like protein 4, full length isoform A (SALL4, Homo sapiens, UniProt Q9UJQ4, residues 1-1053)
UniProt Q9UJQ4, sequence (whole entry, looked up): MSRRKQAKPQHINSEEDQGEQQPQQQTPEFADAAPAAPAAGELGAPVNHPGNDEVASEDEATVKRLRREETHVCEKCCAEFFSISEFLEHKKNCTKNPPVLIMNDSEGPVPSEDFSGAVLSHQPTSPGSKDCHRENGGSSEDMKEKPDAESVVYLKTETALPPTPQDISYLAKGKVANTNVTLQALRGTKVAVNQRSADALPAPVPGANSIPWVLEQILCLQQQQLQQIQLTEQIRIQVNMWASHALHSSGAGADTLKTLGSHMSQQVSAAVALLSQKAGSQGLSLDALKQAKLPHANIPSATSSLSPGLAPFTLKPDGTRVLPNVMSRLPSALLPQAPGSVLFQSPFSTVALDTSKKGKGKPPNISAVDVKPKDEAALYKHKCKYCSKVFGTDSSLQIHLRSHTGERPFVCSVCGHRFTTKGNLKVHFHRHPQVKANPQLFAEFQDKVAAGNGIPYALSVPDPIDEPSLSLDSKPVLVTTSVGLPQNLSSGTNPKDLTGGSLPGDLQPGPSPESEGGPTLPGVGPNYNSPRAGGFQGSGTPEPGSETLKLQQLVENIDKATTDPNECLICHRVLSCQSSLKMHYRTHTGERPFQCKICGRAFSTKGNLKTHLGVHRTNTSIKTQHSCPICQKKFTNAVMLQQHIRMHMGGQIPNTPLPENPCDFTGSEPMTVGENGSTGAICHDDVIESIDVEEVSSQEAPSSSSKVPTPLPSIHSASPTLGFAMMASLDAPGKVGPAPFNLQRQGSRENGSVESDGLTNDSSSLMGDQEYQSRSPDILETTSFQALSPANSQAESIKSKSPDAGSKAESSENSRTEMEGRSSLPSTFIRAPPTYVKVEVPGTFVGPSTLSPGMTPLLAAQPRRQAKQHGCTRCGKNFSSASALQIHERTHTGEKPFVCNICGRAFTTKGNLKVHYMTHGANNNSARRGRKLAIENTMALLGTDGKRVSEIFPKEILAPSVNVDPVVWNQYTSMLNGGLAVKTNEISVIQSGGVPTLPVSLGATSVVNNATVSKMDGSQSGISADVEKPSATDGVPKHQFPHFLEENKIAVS
Method: universal PBM
Form: double-stranded DNA, one strand shown
Medium: in vitro
Concentration: 600 nM
Setting: 8-mer, flanks averaged, mean of replicates
Reading: higher = stronger binding
Oligonucleotide	E-score
ACCGTTAT	0.178
ACGACGTC	-0.159
AGATGTTA	0.164
CAACGTGA	-0.0959
AAGAAAAA	0.317
ACCTCACC	-0.143
AGACGACA	-0.0251
ACTTCCGA	-0.0418
ACTGCTGG	-0.179
AATAACGA	0.275
AAATCGAG	0.0984
AAACGGAC	-0.0888
ATCTGGTG	-0.0484
CTCCAGGC	-0.248
AACTACGT	0.138
GGCTGTAA	-0.027
AGGTTGTC	-0.194
GAGCATCC	-0.299
AACACAAT	0.254
GCTACGAC	-0.0714
AAAAGGCT	0.0069
AAACGTGA	0.184
AATCCCAA	0.108
ACAAAGCT	0.0616
AACTTTTG	0.186

Set 4
Target: CCNA2, cyclin fold, Cln2 fusion (human)
Method: yeast growth competition, sequencing
Medium: yeast
Setting: strong parent motif
Relative to: not given
Reading: higher = stronger binding
Starting sequence: E2F1 docking peptide (human); PPVKRRLDLETDH
Variant	normalised enrichment score
PPVKRRLDLGTDH [E10G]	5.73
PPVKRTLDLETDH [R6T]	1.99
PPTKRRLDLETDH [V3T]	2.63
PPVKRRLWLETDH [D8W]	4.33
PPVKRRLDLETDC [H13C]	4.24
PPVKRRLDLEEDH [T11E]	3.73
PPVKRRLDFETDH [L9F]	6.26
PPVKRRLQLETDH [D8Q]	4.79
PPVKRRLLLETDH [D8L]	4.22
PPVKRRLDLEWDH [T11W]	5.13
PPVKRRLNLETDH [D8N]	5.81
PPGKRRLDLETDH [V3G]	0.798
PPVKRRLDLETCH [D12C]	4.7
PPVKRYLDLETDH [R6Y]	0.797
PPVKRRLDLHTDH [E10H]	4.78
PPVKRRLHLETDH [D8H]	2.95
PPVKRRIDLETDH [L7I]	2.15
PPVKRRLDLETDM [H13M]	4.93
PPVKRRLDLETMH [D12M]	4.98
PPVKRRLRLETDH [D8R]	4.25
PPVKRRLDLETDF [H13F]	4.03
PCVKRRLDLETDH [P2C]	3.84
PAVKRRLDLETDH [P2A]	3.52
PPVKLRLDLETDH [R5L]	-0.372
VPVKRRLDLETDH [P1V]	3.77

Set 5
Target: RNA binding protein fox-1 homolog 2, RRM domain, GST-SBP tag (RBFOX2, Homo sapiens, UniProt O43251-10, residues 100-194)
Method: RNA Bind-n-Seq
Form: RNA
Medium: in vitro
Concentration: 365 nM
Setting: natural RNA segment, single round, ends assumed
Relative to: no-protein control
Reading: higher = stronger binding
All sequences stand within: GGGAGUUCUACAGUCCGACGAUC … UGGAAUUCUCGGGUGCCAA
Construct (chain): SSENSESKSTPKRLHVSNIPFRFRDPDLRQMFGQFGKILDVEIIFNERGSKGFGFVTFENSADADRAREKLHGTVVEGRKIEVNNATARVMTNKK
Oligonucleotide	RBNS enrichment (R)
AGCACUGUAUACUAUUGCAUUCUUAGGCUACUGUGAGGUCUAUGUUUCUUGUACCAGAAAUUGUCCUUUUGACUUCUAGAUCCUUCUUCCCUAAUGUGUUUUGUAUGUGG	1.57
UGUAUAGGGGUUAUAGUGGGGAAGUGGAUAGGGGAUUCAUUUUCUUAUGUGACAUUUUGCCUUAAGAAUAUAAAAGUGCUUUAGCACUGAUGGCUGGCAUUUUUAAUAUA	1.02
UUUAAAUGAAAACUCAAAAUAAGACAAGUAAUUUGUUGAUAAAUAUUUUUAAAGAUAACUCAGCAUGUUUGUAAAGCAGGAUACAUUUUACUAAAAGGUUCAUUGGUUCC	10.5
UGAUGGCUUCUUAUGUGCAUUCAACAGUUAAAAAUUCCUAAUCGAUUCUGUCAUCAUGCCCCCUCCCCACUUGUUCCUGCAGUUAUUAAAUAUUAACCAGGUUAGUGUUG	0.601
UUGUAUAAUCAUGUAUCCUCUUGUGUGCUGGUAGAGAUUUUAAUCCUGAUUUUUCCAUAAAACAUGAGUAUUAAGAAAUAAUUCCUGGUUUGGAGAAACUGGAGAAAUCA	0.393
UAACUCAGGGAGGGAGGGGAGGUCCUUAGCUGGGGGAAAGGAGGCGAGGGUCCUUACUGCUGUGUACCAACACUGACCCCGCCCUCUCUGAGCUGUACUCUCUGCCCGUG	0.766
CCACGCCCGGCUAAUUUUUAUAUUUUUGGUAGAGAUGGGGUUUCACCAUGCUGGCCAGGCUGGUCUCGAACUCCUGACCUCAGGUGAUCCCCCCCACCUCAGCCUCCCAA	0.259
UAUGUUGGUUUAGCGUUGUUUUGUGGAUAAGAAAAAUGCUUGACCCUGAAAUAUUUUCUACUUUAAAUUGUGGAUGAAGACCCUAUCUCCCACAAAUAAGUUCCCAUUUC	2.04
CACAUCUCUCACACAGCUGAGAGUCACCUUUCCAGGCGGGCCUGGCCUUGUGUAGAAAGUCUCUGGGAAUGGUGUUACGUGAAAGAGGGAUUCCCGUGUCAAGCCAGUGA	0.99
GACGUCAACGGAGGAACCUCGGUUCUUCAACACAAGCUUUGUAUGUAAGCCGAGAGAAAAGUCAUGUAUAUCAGGCCUAGGUCUUGACACUUAAUUUUCUAUUGUAAAAA	0.379
UUCUGGUUGGAAAUUAUAUAAACCAACAUGACAAUAACUGUUUCCCCCCAAAAGGCUCAGGAGCUGACUUUUAGAAGUGAGGUUCAAAGUCUUUAACCACUUCUGAAUCU	0.301
GUUUUGAAACAGAAACCAGUACUCAAUAAUGUAGUGUCAGUGUCCGUUUGGUACGUAUCAGUGAAUUAUUGGACAGUUAGCUUAUAACUUAUAGGCAGUCACUAUAAAUU	0.296
